{"data": "Experimental data from different studies", "note": "Each numbered part is a random draw from the data of one study; scales do not carry over between parts. “And” joins repeats or separate records; there may be more than shown.", "UniProt Q92918, sequence (whole entry, looked up)": "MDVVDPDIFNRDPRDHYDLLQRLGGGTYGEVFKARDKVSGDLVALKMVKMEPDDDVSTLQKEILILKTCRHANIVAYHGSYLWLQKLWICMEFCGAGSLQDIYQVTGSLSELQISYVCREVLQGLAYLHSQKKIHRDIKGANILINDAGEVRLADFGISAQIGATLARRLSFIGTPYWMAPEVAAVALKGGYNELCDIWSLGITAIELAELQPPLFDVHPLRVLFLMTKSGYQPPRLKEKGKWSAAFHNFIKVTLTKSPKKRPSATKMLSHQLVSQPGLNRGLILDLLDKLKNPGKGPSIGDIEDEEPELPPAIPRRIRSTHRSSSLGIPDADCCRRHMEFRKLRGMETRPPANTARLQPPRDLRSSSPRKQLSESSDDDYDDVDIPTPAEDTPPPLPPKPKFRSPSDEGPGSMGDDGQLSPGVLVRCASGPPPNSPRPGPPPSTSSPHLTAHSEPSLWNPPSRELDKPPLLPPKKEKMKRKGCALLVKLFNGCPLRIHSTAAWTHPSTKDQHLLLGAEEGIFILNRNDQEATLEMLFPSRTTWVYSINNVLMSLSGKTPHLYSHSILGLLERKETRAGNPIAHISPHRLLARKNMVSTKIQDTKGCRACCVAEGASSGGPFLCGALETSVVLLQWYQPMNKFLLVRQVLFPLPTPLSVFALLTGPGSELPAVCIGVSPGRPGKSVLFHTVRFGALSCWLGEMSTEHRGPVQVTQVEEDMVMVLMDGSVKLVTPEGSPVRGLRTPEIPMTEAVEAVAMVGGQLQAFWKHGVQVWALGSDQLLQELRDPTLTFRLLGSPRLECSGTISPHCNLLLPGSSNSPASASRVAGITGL", "UniProt P53355, sequence (whole entry, looked up)": "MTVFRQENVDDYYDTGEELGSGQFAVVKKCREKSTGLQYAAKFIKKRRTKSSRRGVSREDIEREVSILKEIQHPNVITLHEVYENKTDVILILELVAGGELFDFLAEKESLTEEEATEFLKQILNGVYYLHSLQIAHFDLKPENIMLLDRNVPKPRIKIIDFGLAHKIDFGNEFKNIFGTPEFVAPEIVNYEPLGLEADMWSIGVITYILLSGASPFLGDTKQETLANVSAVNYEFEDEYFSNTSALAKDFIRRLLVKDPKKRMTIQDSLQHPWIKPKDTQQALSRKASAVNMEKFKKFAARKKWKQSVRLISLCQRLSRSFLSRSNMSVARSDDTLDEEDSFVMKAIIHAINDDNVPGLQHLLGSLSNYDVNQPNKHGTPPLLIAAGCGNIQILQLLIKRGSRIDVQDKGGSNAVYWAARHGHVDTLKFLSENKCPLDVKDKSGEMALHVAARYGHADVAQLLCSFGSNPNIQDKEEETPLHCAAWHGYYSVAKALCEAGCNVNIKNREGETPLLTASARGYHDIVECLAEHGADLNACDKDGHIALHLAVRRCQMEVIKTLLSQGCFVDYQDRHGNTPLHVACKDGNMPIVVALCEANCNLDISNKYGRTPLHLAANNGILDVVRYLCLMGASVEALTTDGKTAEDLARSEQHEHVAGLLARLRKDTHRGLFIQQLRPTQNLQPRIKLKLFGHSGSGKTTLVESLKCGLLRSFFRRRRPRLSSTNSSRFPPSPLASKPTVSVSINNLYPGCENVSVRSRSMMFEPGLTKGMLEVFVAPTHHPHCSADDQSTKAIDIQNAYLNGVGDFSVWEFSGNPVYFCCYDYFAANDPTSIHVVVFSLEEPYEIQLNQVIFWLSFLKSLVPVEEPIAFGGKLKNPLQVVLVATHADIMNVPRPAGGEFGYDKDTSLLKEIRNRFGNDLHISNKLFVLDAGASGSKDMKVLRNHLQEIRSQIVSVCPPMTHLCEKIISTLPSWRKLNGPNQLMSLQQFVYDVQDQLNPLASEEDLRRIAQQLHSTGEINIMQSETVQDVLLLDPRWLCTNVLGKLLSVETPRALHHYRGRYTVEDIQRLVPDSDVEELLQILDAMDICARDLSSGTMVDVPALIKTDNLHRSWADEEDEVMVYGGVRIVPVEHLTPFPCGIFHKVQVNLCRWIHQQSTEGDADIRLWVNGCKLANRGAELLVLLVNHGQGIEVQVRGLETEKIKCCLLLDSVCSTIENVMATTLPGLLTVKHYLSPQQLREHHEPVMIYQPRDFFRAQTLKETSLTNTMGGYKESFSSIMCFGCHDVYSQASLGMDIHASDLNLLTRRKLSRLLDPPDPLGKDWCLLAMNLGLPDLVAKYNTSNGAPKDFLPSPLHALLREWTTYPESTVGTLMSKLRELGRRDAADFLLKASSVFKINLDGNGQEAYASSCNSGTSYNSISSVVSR", "UniProt Q05397, sequence (whole entry, looked up)": "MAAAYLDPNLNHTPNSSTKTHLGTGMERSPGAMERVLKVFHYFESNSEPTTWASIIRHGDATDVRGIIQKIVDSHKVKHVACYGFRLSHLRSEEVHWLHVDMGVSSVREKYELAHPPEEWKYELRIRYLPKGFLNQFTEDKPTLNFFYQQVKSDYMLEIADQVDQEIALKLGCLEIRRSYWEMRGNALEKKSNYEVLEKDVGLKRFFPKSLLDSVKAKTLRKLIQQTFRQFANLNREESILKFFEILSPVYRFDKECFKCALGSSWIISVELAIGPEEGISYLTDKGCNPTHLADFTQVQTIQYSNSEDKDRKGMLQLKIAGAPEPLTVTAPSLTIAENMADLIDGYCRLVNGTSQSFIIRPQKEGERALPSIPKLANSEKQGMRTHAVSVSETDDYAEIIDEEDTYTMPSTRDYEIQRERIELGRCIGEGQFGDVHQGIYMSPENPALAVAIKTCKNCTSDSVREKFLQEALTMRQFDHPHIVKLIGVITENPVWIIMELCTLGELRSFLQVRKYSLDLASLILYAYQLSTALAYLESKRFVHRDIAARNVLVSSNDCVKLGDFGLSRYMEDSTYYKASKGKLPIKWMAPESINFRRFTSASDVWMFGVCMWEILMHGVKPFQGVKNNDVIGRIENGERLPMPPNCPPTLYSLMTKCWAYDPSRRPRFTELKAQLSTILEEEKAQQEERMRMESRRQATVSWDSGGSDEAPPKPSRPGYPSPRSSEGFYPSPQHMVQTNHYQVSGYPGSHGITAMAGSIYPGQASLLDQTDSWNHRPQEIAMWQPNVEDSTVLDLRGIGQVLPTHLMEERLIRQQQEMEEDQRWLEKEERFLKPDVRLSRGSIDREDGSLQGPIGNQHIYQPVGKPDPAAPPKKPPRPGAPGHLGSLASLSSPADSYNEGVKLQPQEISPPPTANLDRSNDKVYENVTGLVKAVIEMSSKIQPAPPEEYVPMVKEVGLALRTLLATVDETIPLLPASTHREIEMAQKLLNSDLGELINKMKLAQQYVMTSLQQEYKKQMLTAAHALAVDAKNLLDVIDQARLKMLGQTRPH"}
{"data": "Series 1", "SMILES": "Cn1nc(C(F)(F)F)cc1-c1cnc(N2CCc3cc(S(=O)(=O)Nc4c(F)cc(Cl)cc4F)cc(N4CCCC4=O)c32)nc1", "technique": "competition with immobilised ligand", "tested at": "1 µM"}
{"target": "CDKL3 (Homo sapiens, UniProt Q8IVW4)", "read-out": "binding", "remaining binding [%]": 100}
{"target": "BUB1 (Homo sapiens, UniProt O43683)", "read-out": "cell-free assay", "remaining binding [%]": 87}
{"target": "MAPK6 (Homo sapiens, UniProt Q16659)", "read-out": "cell-free assay", "remaining binding [%]": 100}
{"target": "PTK2 (Homo sapiens, UniProt Q05397)", "read-out": "cell-free assay", "remaining binding [%]": 98}
{"target": "SGK1 (Homo sapiens, UniProt O00141)", "read-out": "cell-free assay", "remaining binding [%]": 100}
{"target": "TYRO3 (Homo sapiens, UniProt Q06418)", "read-out": "cell-free assay", "remaining binding [%]": 100}
{"target": "GRK2 (Homo sapiens, UniProt P25098)", "read-out": "cell-free assay", "remaining binding [%]": 85}
{"target": "ALK (Homo sapiens, UniProt Q9UM73)", "read-out": "cell-free assay", "remaining binding [%]": 80}
{"target": "MAP4K1 (Homo sapiens, UniProt Q92918)", "read-out": "cell-free assay", "remaining binding [%]": 100}
{"target": "PIK3CB (Homo sapiens, UniProt P42338)", "read-out": "cell-free assay", "remaining binding [%]": 85}
{"target": "CDK11B (Homo sapiens, UniProt P21127)", "read-out": "cell-free assay", "remaining binding [%]": 100}
{"target": "IGF1R (Homo sapiens, UniProt P08069)", "read-out": "cell-free assay", "remaining binding [%]": 94}
{"target": "MAP4K3 (Homo sapiens, UniProt Q8IVH8)", "read-out": "cell-free assay", "remaining binding [%]": 84}
{"target": "PIP5K1A (Homo sapiens, UniProt Q99755)", "read-out": "cell-free assay", "remaining binding [%]": 100}
{"target": "BRAF (Homo sapiens, UniProt P15056, V600E)", "read-out": "cell-free assay", "remaining binding [%]": 100}
{"target": "PIK3CA (Homo sapiens, UniProt P42336, E545A)", "read-out": "cell-free assay", "remaining binding [%]": 84}
{"target": "MAP3K7 (Homo sapiens, UniProt O43318)", "read-out": "cell-free assay", "remaining binding [%]": 79}
{"target": "DAPK1 (Homo sapiens, UniProt P53355)", "read-out": "cell-free assay", "remaining binding [%]": 96}
{"target": "EGFR (Homo sapiens, UniProt P00533, G719C)", "read-out": "cell-free assay", "remaining binding [%]": 100}
{"target": "Ribosomal protein S6 kinase alpha-5, C-terminal kinase domain (RPS6KA5, Homo sapiens, UniProt O75582)", "read-out": "cell-free assay", "remaining binding [%]": 97}
{"target": "ANKK1 (Homo sapiens, UniProt Q8NFD2)", "read-out": "cell-free assay", "remaining binding [%]": 96}
{"target": "PRPF4B (Homo sapiens, UniProt Q13523)", "read-out": "cell-free assay", "remaining binding [%]": 100}
{"data": "Series 2", "cell line": "mouse MPNST tumor cells", "technique": "high-content immunofluorescence imaging", "measured": "nuclear SOX9", "tested at": "10 µM", "time": "12 h", "notes": "mean of 2 replicates", "reference": "DMSO control", "reading": "higher = more nuclear SOX9"}
{"SMILES": "CC(C)c1ccccc1S(=O)(=O)c1cc(N)c2ncccc2c1[N+](=O)[O-]", "nuclear SOX9 intensity": "65.8 % of DMSO"}
{"SMILES": "Cn1c(=O)c2c(ncn2CC(O)CO)n(C)c1=O (stereo not shown)", "nuclear SOX9 intensity": "101 % of DMSO"}
{"SMILES": "Cc1ccc2cc(-c3c(C)ccc(C(=O)c4c(-c5ccccc5)n(C)n(-c5ccccc5)c4=O)c3N)ccc2n1", "nuclear SOX9 intensity": "125 % of DMSO"}
{"SMILES": "COc1c(N2CCNC(C)C2)c(F)cc2c(=O)c(C(=O)O)cn(C3CC3)c12 (stereo not shown)", "nuclear SOX9 intensity": "96 % of DMSO"}
{"SMILES": "c1ccc2c(c1)CCCC2C1=NCCN1 (stereo not shown)", "nuclear SOX9 intensity": "89.7 % of DMSO"}
{"SMILES": "CO[C@H]1O[C@@H]2O[C@@]3(C)CC[C@H]4[C@H](C)CC[C@@H]([C@H]1C)[C@@]24OO3", "nuclear SOX9 intensity": "114 % of DMSO"}
{"SMILES": "COc1cc2c(cc1NS(=O)(=O)c1ccc(Br)cc1C)n(C)c(=O)n2C", "nuclear SOX9 intensity": "95.3 % of DMSO and 101 % of DMSO"}
{"SMILES": "C=CCn1c(=O)n([C@@H]2O[C@H](CO)[C@@H](O)[C@H]2O)c2nc(N)[nH]c(=O)c21", "nuclear SOX9 intensity": "99.5 % of DMSO"}
{"SMILES": "COc1cccc(/C=N/N(C(=O)C(F)(F)F)c2ccc(C)cc2C)c1", "nuclear SOX9 intensity": "107 % of DMSO"}
{"SMILES": "Cc1[nH]c(/C=C2\\C(=O)Nc3cc(-c4ccccc4)ccc32)c(C)c1CCC(=O)O", "nuclear SOX9 intensity": "185 % of DMSO"}
{"SMILES": "CCn1cc(C(=O)O)c(=O)c2cnc(N3CCNCC3)nc21", "nuclear SOX9 intensity": "94.5 % of DMSO"}
{"SMILES": "Cc1ccc(-c2ncc[nH]2)cc1NC(=O)c1ccc(OCc2ccccn2)cc1", "nuclear SOX9 intensity": "105 % of DMSO"}
{"SMILES": "CCN1CCc2nc(N)oc2CC1", "nuclear SOX9 intensity": "95.2 % of DMSO"}
{"SMILES": "CNCC(O)c1ccc(OC(=O)C(C)(C)C)c(OC(=O)C(C)(C)C)c1 (stereo not shown)", "nuclear SOX9 intensity": "123 % of DMSO"}
{"SMILES": "O=C(O)c1cnccn1", "nuclear SOX9 intensity": "88.8 % of DMSO"}
{"data": "Series 3", "target": "Eukaryotic initiation factor 4A-I (EIF4A1, Homo sapiens, UniProt P60842)", "read-out": "RNA clamping", "technique": "fluorescence polarization", "tested at": "concentration not given", "added": "FAM-labelled poly r(AG)8 RNA", "reading": "higher = more clamping", "UniProt P60842, sequence (whole entry, looked up)": "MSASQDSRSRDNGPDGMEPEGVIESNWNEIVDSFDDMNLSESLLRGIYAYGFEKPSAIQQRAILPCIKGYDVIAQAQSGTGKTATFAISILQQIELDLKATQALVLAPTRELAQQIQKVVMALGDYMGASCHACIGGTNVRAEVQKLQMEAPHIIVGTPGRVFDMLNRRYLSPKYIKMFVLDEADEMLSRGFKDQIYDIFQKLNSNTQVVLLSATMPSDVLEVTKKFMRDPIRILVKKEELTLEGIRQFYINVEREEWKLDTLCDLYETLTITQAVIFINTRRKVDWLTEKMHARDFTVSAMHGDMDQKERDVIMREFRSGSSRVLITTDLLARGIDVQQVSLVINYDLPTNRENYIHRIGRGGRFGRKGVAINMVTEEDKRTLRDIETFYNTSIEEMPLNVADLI"}
{"Structure (SMILES)": "COC(=O)[C@H]1C(=O)[C@@]2(Nc3ccccc3)c3c(OC)cc(OC)cc3O[C@@]2(c2ccc(OC)cc2)[C@@H]1c1ccccc1", "fluorescence polarization change [mP]": -12.1}
{"Structure (SMILES)": "COC(=O)[C@@H]1[C@@H](c2ccccc2)[C@]2(c3ccc(OC)cc3)Oc3cc(OC)cc(OC)c3[C@@]23OC(c2ccc(OCc4ccccc4)cc2)=N[C@@]13O", "fluorescence polarization change [mP]": -0.6}
{"Structure (SMILES)": "COc1ccc([C@@]23Oc4cc(O)cc(OC)c4[C@]2(O)[C@H](O)[C@H](C(=O)c2ccco2)[C@H]3c2ccccc2)cc1", "fluorescence polarization change [mP]": 12.7}
{"Structure (SMILES)": "COc1ccc([C@]23[C@@H](c4ccccc4)C[C@@H](O)[C@@]2(O)c2c(F)cccc2N3C)cc1", "fluorescence polarization change [mP]": 13.8}
{"Structure (SMILES)": "COC(=O)CCCn1c(-c2ccccc2)nc2c(c1=O)[C@@H](c1ccccc1)[C@]1(c3ccc(OC)cc3)Oc3cc(OC)cc(OC)c3[C@]21O", "fluorescence polarization change [mP]": 24.6}
{"Structure (SMILES)": "COc1cc(OC)c2c(c1)O[C@@]1(c3ccc(Br)cc3)[C@H](c3ccccc3)[C@@H](C(=O)N(C)OC)[C@@H](O)[C@@]21O", "fluorescence polarization change [mP]": 72.9}
{"Structure (SMILES)": "COC(=O)[C@H]1[C@@H](O)[C@@]2(O)c3c(F)cccc3N(C)[C@@]2(c2ccc(OC)cc2)[C@@H]1c1ccccc1", "fluorescence polarization change [mP]": 2}
{"Structure (SMILES)": "COc1ccc([C@@]23Oc4cc(OC)cc(OC)c4[C@]2(O)[C@H](O)[C@H](C(=O)c2ccco2)[C@H]3c2cccc(OC)c2)cc1", "fluorescence polarization change [mP]": 21.5}
{"Structure (SMILES)": "COC(=O)[C@H]1C(=O)[C@@]2(NCCN3CCOCC3)c3c(OC)cc(OC)cc3O[C@@]2(c2ccc(OC)cc2)[C@@H]1c1ccccc1", "fluorescence polarization change [mP]": 13.5}
{"Structure (SMILES)": "C#CCCC1(CCOc2ccc([C@@H]3[C@@H](C(=O)c4ccco4)[C@@H](O)[C@@]4(O)c5c(OC)cc(OC)cc5O[C@@]34c3ccc(OC)cc3)cc2)N=N1", "fluorescence polarization change [mP]": 0.7}
{"Structure (SMILES)": "COC(=O)[C@H]1[C@@H](O)[C@@]2(O)c3c(OC)cccc3N(C)[C@@]2(c2ccc(OC)cc2)[C@@H]1c1ccccc1", "fluorescence polarization change [mP]": 2.6}
{"Structure (SMILES)": "CCOC(=O)COc1nc(-c2ccccc2)nc2c1[C@@H](c1ccccc1)[C@]1(c3ccc(OC)cc3)Oc3cc(OC)cc(OC)c3[C@]21OCC(=O)OCC", "fluorescence polarization change [mP]": 9.6}
{"data": "Series 4", "target": "Mitogen-activated protein kinase kinase kinase 9 (MAP3K9, Homo sapiens, UniProt P80192)", "read-out": "enzyme activity", "mode": "inhibitor", "tested at": "0.5 µM", "reference": "control", "UniProt P80192, sequence (whole entry, looked up)": "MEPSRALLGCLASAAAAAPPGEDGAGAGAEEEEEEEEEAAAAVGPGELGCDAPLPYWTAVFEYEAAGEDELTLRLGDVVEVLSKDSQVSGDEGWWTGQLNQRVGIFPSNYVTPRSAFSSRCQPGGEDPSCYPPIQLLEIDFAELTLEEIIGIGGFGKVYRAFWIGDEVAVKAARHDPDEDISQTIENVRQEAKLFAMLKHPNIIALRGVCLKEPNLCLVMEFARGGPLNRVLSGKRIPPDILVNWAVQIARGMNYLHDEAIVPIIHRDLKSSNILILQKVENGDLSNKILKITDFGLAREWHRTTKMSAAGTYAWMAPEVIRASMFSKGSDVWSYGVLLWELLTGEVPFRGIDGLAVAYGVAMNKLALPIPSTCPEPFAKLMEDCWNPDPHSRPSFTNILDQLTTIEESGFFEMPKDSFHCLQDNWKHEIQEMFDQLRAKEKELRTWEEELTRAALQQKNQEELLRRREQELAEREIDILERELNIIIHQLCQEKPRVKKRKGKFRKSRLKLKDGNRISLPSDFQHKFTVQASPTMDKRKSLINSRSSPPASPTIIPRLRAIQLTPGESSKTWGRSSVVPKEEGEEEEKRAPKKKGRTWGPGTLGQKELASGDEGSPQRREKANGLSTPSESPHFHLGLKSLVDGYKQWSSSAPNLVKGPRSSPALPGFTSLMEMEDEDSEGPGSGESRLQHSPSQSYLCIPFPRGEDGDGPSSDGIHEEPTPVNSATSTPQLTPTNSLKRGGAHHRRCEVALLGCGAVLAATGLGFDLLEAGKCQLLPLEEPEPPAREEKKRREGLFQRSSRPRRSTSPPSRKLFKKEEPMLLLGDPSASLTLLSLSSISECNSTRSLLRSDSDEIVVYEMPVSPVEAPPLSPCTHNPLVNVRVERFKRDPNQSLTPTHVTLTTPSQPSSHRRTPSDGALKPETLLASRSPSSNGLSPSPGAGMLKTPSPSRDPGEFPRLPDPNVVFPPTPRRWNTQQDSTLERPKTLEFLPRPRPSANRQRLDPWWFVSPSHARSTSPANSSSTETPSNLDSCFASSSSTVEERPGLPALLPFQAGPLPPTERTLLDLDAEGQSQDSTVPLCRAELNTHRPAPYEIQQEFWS"}
{"Structure (SMILES)": "CC(C)N(CCC(=O)c1ccc2ccccc2c1)Cc1ccccc1", "remaining activity": "104%"}
{"Structure (SMILES)": "C[C@@H](N)[C@H]1CC[C@H](C(=O)Nc2ccncc2)CC1", "remaining activity": "96.2%"}
{"Structure (SMILES)": "O=C(c1ccccc1)c1ccc(N2CCOCC2)cc1O", "remaining activity": "112%"}
{"Structure (SMILES)": "O=C(O)/C=C/c1cc(Br)c(Br)c(Br)c1Br", "remaining activity": "101%"}
{"Structure (SMILES)": "CCN(CC)CCCCN1c2ccccc2Oc2ccc(Cl)cc21", "remaining activity": "95.7%"}
{"Structure (SMILES)": "NC(=O)c1ccc(-c2nc(-c3ccc4c(c3)OCCO4)c(-c3ccccn3)[nH]2)cc1", "remaining activity": "101%"}
{"Structure (SMILES)": "CCCCc1c(-c2ccc(O)cc2)[nH]c2nccnc12", "remaining activity": "37.3%"}
{"Structure (SMILES)": "Nc1nc(Nc2ccc(S(N)(=O)=O)cc2)nn1C(=S)Nc1c(F)cccc1F", "remaining activity": "-0.373%"}
{"Structure (SMILES)": "CC(C)(C)c1nc2c3cc[nH]c(=O)c3c3cc(F)ccc3c2[nH]1", "remaining activity": "20.4%"}
{"note": "For quick reference, copied from above (series 4):"}
{"Structure (SMILES)": "CC(C)N(CCC(=O)c1ccc2ccccc2c1)Cc1ccccc1", "remaining activity": "104%"}
{"Structure (SMILES)": "C[C@@H](N)[C@H]1CC[C@H](C(=O)Nc2ccncc2)CC1", "remaining activity": "96.2%"}
{"Structure (SMILES)": "O=C(c1ccccc1)c1ccc(N2CCOCC2)cc1O", "remaining activity": "112%"}
